Published values collected from several papers.
Numbered parts are unrelated; each lists some results of a single study.
Chain of UniProt O15111 (whole entry, looked up): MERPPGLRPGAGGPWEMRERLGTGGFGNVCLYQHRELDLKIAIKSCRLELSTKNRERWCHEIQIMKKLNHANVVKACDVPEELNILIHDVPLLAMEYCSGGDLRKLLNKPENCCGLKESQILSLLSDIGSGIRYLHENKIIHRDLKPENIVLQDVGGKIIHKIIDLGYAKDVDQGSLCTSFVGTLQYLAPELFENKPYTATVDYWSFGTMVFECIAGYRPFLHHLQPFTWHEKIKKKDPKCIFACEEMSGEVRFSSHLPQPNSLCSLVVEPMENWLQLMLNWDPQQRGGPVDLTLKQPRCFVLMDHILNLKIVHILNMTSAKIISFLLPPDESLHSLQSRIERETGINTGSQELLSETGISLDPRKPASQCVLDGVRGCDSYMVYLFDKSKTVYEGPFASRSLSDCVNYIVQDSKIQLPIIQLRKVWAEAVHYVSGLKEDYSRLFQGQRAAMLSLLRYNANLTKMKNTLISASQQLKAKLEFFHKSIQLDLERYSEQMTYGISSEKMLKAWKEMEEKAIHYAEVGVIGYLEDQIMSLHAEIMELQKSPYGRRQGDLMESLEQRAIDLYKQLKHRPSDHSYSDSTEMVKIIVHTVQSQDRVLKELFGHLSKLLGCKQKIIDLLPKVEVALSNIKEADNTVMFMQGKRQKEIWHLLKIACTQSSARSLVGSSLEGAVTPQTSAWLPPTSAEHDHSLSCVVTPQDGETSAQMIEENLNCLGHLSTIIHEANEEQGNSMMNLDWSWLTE
Chain of UniProt Q92772 (whole entry, looked up): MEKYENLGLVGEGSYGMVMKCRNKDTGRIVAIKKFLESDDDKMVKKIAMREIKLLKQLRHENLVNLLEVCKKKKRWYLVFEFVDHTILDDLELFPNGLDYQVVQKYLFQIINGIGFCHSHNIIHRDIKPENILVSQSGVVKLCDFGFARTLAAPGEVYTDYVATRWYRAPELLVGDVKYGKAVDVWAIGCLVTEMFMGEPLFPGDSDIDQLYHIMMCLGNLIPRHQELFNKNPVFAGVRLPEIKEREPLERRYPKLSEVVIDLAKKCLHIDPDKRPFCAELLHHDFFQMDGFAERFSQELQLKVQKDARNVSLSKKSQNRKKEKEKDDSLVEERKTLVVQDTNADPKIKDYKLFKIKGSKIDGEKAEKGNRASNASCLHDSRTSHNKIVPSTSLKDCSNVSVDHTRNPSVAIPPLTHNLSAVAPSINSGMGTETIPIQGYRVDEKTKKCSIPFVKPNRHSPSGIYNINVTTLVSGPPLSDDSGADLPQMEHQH
Chain of UniProt O00238 (whole entry, looked up): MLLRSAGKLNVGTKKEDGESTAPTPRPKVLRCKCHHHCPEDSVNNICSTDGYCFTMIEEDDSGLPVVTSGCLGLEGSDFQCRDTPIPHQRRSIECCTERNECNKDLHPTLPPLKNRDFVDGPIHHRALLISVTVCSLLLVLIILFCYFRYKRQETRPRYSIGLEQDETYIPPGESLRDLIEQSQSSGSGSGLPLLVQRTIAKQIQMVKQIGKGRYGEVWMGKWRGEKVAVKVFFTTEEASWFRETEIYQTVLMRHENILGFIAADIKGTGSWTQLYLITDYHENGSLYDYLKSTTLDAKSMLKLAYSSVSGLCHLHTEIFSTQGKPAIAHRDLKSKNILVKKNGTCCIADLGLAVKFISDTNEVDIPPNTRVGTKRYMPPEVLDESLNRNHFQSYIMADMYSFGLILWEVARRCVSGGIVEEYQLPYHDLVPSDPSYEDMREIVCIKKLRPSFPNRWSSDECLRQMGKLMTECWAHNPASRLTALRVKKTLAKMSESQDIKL
Chain of UniProt Q9UK32 (whole entry, looked up): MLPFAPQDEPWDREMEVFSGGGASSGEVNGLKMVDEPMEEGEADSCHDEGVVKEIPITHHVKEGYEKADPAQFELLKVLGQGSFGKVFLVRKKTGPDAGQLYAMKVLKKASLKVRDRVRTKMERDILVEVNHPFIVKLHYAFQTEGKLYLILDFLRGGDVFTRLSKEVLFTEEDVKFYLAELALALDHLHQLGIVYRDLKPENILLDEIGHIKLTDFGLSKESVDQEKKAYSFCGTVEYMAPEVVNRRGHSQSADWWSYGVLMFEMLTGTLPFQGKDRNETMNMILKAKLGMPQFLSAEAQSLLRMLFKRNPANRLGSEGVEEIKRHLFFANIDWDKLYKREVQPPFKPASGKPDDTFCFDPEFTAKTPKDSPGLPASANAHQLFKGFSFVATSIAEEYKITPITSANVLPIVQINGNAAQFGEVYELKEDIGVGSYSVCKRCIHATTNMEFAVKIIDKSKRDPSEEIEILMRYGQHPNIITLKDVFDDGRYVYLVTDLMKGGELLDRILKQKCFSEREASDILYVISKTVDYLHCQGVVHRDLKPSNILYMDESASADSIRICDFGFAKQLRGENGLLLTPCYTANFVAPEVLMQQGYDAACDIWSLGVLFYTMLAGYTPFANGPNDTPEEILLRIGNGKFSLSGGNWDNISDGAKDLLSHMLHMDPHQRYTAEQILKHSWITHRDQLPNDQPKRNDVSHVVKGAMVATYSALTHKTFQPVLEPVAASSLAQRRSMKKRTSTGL
Chain of UniProt Q13882 (whole entry, looked up): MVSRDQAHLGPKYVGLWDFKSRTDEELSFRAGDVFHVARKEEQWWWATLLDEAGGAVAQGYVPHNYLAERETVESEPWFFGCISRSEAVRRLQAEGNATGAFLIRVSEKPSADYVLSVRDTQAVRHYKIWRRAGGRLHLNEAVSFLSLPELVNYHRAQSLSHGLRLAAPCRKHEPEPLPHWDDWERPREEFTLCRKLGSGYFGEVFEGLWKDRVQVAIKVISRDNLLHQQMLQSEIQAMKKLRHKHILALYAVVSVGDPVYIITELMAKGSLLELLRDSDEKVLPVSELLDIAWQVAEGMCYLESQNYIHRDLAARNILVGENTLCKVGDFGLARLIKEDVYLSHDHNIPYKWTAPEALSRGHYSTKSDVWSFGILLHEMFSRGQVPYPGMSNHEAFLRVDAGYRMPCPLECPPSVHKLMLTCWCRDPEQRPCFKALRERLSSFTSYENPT
Chain of UniProt Q13554 (whole entry, looked up): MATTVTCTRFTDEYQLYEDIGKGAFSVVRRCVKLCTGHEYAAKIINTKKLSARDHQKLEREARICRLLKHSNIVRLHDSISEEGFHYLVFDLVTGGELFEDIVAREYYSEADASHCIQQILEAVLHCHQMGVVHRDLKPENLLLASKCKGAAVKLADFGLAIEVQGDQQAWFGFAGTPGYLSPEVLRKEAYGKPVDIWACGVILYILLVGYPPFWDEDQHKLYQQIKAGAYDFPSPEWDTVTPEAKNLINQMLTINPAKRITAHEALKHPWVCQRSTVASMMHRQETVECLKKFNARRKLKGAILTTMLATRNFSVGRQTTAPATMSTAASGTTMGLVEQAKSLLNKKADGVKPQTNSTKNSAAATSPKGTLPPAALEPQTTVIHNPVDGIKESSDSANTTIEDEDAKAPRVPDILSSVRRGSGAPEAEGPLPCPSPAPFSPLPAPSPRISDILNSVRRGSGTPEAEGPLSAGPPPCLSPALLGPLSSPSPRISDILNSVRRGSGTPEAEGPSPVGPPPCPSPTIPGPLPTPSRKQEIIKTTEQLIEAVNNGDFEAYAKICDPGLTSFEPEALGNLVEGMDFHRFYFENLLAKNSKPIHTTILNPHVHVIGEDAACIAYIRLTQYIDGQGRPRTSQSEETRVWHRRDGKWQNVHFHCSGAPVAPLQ
Chain of UniProt Q6PHR2 (whole entry, looked up): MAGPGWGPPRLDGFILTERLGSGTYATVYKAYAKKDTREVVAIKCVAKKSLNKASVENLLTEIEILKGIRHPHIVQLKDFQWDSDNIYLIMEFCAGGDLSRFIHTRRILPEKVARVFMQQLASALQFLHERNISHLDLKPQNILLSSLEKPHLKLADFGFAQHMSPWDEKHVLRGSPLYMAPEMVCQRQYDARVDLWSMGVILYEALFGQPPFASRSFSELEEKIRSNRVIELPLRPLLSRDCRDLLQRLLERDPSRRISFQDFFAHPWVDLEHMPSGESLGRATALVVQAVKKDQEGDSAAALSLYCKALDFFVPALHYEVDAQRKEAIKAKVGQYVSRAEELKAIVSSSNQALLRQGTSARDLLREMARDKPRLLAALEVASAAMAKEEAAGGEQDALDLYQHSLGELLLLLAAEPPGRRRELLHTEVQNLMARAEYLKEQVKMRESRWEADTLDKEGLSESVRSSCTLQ
Chain of UniProt Q13163 (whole entry, looked up): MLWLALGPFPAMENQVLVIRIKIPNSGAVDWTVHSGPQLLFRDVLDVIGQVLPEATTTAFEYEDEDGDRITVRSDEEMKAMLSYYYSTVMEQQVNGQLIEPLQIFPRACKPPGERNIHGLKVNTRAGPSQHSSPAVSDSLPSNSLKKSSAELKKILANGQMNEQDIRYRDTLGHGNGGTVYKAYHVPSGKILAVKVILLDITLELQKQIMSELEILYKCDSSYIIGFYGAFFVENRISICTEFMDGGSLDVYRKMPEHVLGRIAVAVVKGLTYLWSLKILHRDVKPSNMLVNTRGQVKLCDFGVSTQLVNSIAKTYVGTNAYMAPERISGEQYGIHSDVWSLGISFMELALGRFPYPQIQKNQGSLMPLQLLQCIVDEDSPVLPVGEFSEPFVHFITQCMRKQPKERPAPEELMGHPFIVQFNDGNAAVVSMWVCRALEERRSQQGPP

Study 1
Organism: Sarcocystis neurona
Observed: parasite growth
Tested at: concentration not given
Setting: second screen
Baseline: untreated
Structure (SMILES) | log2 fold change
CC1=C(C(=O)O)N2C(=O)[C@@H](NC(=O)[C@H](N)c3ccccc3)[C@H]2SC1.O | 0.22
CS(=O)(=O)O.O=C(O[C@H]1C[C@H]2CC3C[C@@H](C1)N2CC3=O)c1c[nH]c2ccccc12 | 0.34
C[C@]12C=CC(=O)C=C1CC[C@@H]1[C@@H]2[C@@H](O)C[C@@]2(C)[C@H]1CC[C@]2(O)C(=O)COC(=O)CCC(=O)[O-].[Na+] | 0.19
Cl.c1ccc2c(c1)CCCC2C1=NCCN1 (centres unmarked) | 0.31

Study 2
Species: human
Matrix: microsomes or S9
Tested at: 2 µM
Time: 0.5 h
Compound | remaining compound [%]
Cc1ccc(S(=O)(=O)n2cc(Br)c3c(N4CCC(O)CC4)ncnc32)cc1 | 38.7
Oc1cc(-c2cccc(-c3ccc4c(c3)OCO4)c2)nn1-c1ccccn1 | 20.4
COc1cc(=O)n2c(c1C(=O)NCc1ccc(F)cc1)CCCC2 | 71
Brc1ccc2c3c(ccnc13)CCO2 | 0.0447
COC(=O)c1ccc(Oc2c(C)nn(C(=O)c3ccc(Cl)nc3)c2C)cc1 | 98

Study 3
Target: Beta-1 adrenergic receptor (ADRB1, Homo sapiens, UniProt P08588)
Chain of UniProt P08588 (whole entry, looked up): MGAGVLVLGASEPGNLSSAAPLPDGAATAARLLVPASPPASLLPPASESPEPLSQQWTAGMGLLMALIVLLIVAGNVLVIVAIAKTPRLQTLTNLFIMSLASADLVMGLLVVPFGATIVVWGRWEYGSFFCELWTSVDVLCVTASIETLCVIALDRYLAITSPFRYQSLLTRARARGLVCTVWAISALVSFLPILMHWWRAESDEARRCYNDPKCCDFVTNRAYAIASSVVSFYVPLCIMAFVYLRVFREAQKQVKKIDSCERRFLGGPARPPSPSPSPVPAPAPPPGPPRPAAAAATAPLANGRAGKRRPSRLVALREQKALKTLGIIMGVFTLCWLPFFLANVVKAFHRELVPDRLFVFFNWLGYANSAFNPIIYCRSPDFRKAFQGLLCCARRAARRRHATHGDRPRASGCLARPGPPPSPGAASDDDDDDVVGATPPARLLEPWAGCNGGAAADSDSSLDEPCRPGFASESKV
Action: antagonist
Structure (SMILES) | IC50 [µM]
O=S(=O)(O)c1cc(I)c(O)c2ncccc12 | ≥ 100
Cc1ccc(-c2cc(C(=O)Nc3ccc([S+](=O)([O-])NCc4nccs4)cc3)c3ccccc3n2)cc1C | 22.4
c1cc(-c2cc3c(ccn3Cc3ccncc3)c(N3CCOCC3)n2)c2[nH]ncc2c1 | ≥ 100
Clc1ccccc1-c1cc(C2CCN(Cc3cc4n(n3)CCNC4)CC2)[nH]n1 | 31.6
CN(CCC(N)=O)Cc1ccccc1OCC(O)CN1CCc2ccccc2C1 (centres unmarked) | ≥ 100

Study 4
Structure (SMILES): CCCOc1ccc([C@H]2[C@H](C(=O)O)[C@@H](c3ccc4c(c3)OCO4)CN2CC(=O)Nc2c(CC)cccc2CC)cc1
Observed: cell-free assay
Technique: competition with immobilised ligand
Tested at: 1 µM
target | remaining binding [%]
Ribosomal protein S6 kinase alpha-6, N-terminal kinase domain (RPS6KA6, Homo sapiens, UniProt Q9UK32) | 78
Dual specificity mitogen-activated protein kinase kinase 5 (MAP2K5, Homo sapiens, UniProt Q13163) | 63
Serine/threonine-protein kinase ULK3 (ULK3, Homo sapiens, UniProt Q6PHR2) | 72
Inhibitor of nuclear factor kappa-B kinase subunit alpha (CHUK, Homo sapiens, UniProt O15111) | 77
Protein-tyrosine kinase 6 (PTK6, Homo sapiens, UniProt Q13882) | 84
Epidermal growth factor receptor (EGFR, Homo sapiens, UniProt P00533, del746-750) | 89
Cyclin-dependent kinase-like 2 (CDKL2, Homo sapiens, UniProt Q92772) | 84
Calcium/calmodulin-dependent protein kinase type II subunit beta (CAMK2B, Homo sapiens, UniProt Q13554) | 99
Epidermal growth factor receptor (EGFR, Homo sapiens, UniProt P00533, T790M) | 82
Tyrosine-protein kinase ABL1, non-phosphorylated (ABL1, Homo sapiens, UniProt P00519, T315I) | 58
Ribosomal protein S6 kinase alpha-5, N-terminal kinase domain (RPS6KA5, Homo sapiens, UniProt O75582) | 98

Single results of other studies
SMILES | target | observed | tested at | baseline | measurement | result
O=C(Nc1cnn(-c2csc(C(=O)NC3COC3)c2)c1)Nc1c(F)cccc1Cl | Bone morphogenetic protein receptor type-1B (BMPR1B, Homo sapiens, UniProt O00238) | enzyme activity | 5 µM | untreated control | remaining activity | 111%
